# Published values gathered from unrelated publications.
# Parts stem from different laboratories: compare values within a part only. Positions count from the first letter of the parent shown.

# Set 1 — technique: protein-binding microarray; molecule type: double-stranded DNA, one strand shown; medium: in vitro; concentration: 2540 nM top; setting: 60-bp whole probe; together with: salmon DNA 0.4 mg/ml; baseline: random background probes; reading: higher = stronger binding
# Target: Interferon regulatory factor 3, full length, phosphomimetic (IRF3, Homo sapiens, UniProt Q14653, residues 1-427, S386D/S396D/S398D/S402D/T404D/S405D)
# UniProt Q14653, sequence (whole entry, unmodified, looked up): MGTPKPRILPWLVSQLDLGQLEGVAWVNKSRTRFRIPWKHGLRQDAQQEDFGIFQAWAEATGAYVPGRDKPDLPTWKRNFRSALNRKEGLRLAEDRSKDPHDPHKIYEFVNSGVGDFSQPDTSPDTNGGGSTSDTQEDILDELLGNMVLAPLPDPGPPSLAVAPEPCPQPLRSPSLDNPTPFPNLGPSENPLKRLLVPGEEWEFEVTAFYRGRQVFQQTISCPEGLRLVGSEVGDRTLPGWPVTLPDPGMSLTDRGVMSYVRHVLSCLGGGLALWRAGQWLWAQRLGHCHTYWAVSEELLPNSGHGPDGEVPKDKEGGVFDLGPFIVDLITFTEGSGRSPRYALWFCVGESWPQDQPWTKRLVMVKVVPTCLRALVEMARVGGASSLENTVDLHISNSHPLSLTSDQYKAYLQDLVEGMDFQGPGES
# All sequences stand within: GCCTAGCAC … GTGCTAGGTCTTGATTCGCTTGACGCTGCTG
Sequence,fitted relative affinity [z-score]
TTAGGGTTCGGTTCCGGTTA,3.86
TCAGCATACCATATCAGACT,0.814
AATGTATAACGCCATTAGCT,-0.181
TCATGTTTGATAATTTTACT,-0.0185
GGTCTGGCTGGCTCCTGCAC,-0.925
CACGGTCTCCTTTTCCTGAC,4.2
GACGGTATCTGTATCGGGAC,2.61
GACGGTTTCGGAATGGGGAC,7.38

# Set 2 — technique: competition protein-binding microarray; molecule type: double-stranded DNA, one strand shown; medium: in vitro; concentration: 2 µM; together with: Cbf1 competitor, 0.05 µM; reading: higher = stronger binding; all sequences stand within: … GTCTTGATTCGCTTGACGCTGCTG
# Target: Phosphate system positive regulatory protein PHO4, full length, GST-tagged (PHO4, Saccharomyces cerevisiae, UniProt P07270, residues 1-312)
# Setting: whole 60-bp probe, lowest competitor level
# Construct (chain): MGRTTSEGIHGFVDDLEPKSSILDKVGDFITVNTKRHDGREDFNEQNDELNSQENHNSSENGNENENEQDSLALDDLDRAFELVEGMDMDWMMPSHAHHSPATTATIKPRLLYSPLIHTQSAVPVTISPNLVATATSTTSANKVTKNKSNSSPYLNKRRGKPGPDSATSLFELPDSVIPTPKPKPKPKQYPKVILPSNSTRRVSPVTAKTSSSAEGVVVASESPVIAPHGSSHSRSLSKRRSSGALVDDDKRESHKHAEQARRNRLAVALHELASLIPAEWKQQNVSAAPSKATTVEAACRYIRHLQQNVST
Sequence,fluorescence intensity
TTTCCAGGCCCAGCGAGCGTGCTTTGCAAGAGGATC,6300 a.u.
GTCTTGTCTCATTGTCACGGAACTTTCCCCACTTCA,4470 a.u.
GATGATGTTGGTTTGACCGTGATGGATGTCCAAGTA,5040 a.u.
GATTGCATACCCGCACTCGTGCTTTCATGCTAATTG,10400 a.u.
AAAGCGGTAATTTGCAAAGTGGGTGCAGATATCTAT,4080 a.u.
TCTACAGGAGTTCTGCATGTGCGTAATTCAAAGCCT,10800 a.u.
CCACATCTGTCTCTCAATGGTCAAATACCGTTTTAA,4380 a.u.
AAATTACTAAGTTGTCACGTCACTTACCCCGTATGA,4630 a.u.

# Single results of other studies
# P1: PafA, mature enzyme, eGFP fusion (Elizabethkingia meningoseptica, UniProt Q9KJX5); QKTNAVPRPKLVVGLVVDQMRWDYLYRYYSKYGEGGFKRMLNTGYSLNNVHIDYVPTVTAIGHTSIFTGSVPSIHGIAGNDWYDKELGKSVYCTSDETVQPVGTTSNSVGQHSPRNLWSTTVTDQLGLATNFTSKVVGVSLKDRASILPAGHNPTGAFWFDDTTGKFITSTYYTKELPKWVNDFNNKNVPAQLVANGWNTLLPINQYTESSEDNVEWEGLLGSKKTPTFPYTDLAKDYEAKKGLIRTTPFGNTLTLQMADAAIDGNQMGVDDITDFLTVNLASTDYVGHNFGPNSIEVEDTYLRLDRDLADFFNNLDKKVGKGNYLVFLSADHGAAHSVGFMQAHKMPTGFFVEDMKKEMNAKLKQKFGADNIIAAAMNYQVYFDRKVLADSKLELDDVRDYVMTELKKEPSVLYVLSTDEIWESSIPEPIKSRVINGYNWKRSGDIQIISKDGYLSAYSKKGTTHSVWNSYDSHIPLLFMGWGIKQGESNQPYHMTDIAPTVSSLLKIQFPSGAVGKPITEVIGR
Substance,target,test,system,setting,scale,measurement,result
"PhoQ, residues 284 288 289 292 302 303 DDMDFR","PhoP, residues 12 14 15 18 19 TTLRV (Escherichia coli, UniProt P23836)","Sort-seq, measured: YFP reporter",E. coli,"PhoQ-PhoP variant library, together with: 10 µM Mg2+","baseline: high Mg2+ state, higher = stronger signaling",fold induction,0.821
P1 Y302V,"tungstate, free oxyanion",microfluidic competitive inhibition,"in vitro, cell-free expressed","not given, derived from inhibition constants, unchanged parent 2230 nM",lower = stronger binding,oxyanion analog dissociation constant,3.67 µM

# Repeated from above (single results of other studies):
Substance,target,test,system,setting,scale,measurement,result
"PhoQ, residues 284 288 289 292 302 303 DDMDFR","PhoP, residues 12 14 15 18 19 TTLRV (Escherichia coli, UniProt P23836)","Sort-seq, measured: YFP reporter",E. coli,"PhoQ-PhoP variant library, together with: 10 µM Mg2+","baseline: high Mg2+ state, higher = stronger signaling",fold induction,0.821
P1 Y302V,"tungstate, free oxyanion",microfluidic competitive inhibition,"in vitro, cell-free expressed","not given, derived from inhibition constants, unchanged parent 2230 nM",lower = stronger binding,oxyanion analog dissociation constant,3.67 µM
